Experimental data pooled from the literature.
Numbers after ± are the reported error.
Organism: Plasmodium falciparum

CC(C)c1ccc2c(c1)CC[C@H]1[C@](C)(CN)CCC[C@]21C
parasites at trophozoite or schizont stage (Giemsa microscopy; 3D7; 10 µM, 48 h): 2.4%

CC[C@H](C)[C@@H](C(=O)O[C@@H](CC(C)C)C(=O)N[C@@H](CC(C)C)C(=O)N[C@@H](C)/C=C/C(=O)N1C(=O)C=C(OC)[C@@H]1C)N(C)C
minimal effective concentration (schizont egress block; 24 h): ≥ 10 µM

CCCCCCC(C)CC1=C(O)C(=O)c2c(C)cccc2C1=O (stereo not drawn)
IC50 (parasite growth, [3H]hypoxanthine incorporation; D6 chloroquine-sensitive, human erythrocytes): 73 nM

CC(C)n1nc(-c2ccc3oc(N)nc3c2)c2c(N)ncnc21
reduction of infected mosquitoes (membrane feeding Anopheles gambiae; NF54 stage V gametocytes; 2 µM, 48 h): 44%

Cc1cccc(C)c1CC1CN(C(=O)[C@@H](N)Cc2ccc(O)cc2)C1
inhibition (male gamete formation, exflagellation; NF54 stage V gametocytes; 1 µM, 48 h): 18 ± 8.2%

O=C1C(O)=C([C@H]2CC[C@H](c3ccc(Cl)cc3)CC2)C(=O)c2ccccc21
metabolite level (refers to: dihydroorotate, N-carbamoyl-L-aspartate; 3D7 trophozoites; 10-fold IC50, 2.5 h; relative to: untreated): increased

Cc1[nH]c2ccccc2c(=O)c1-c1ccc(Oc2ccccc2)cc1
EC50 (parasite growth, SYBR Green; D6; 72 h, blood stage): 10 nM

CO\C=C(C(=O)OC)/C(C)=C\C=C\c1ccc(Cl)c(OC)c1
IC50 (parasite proliferation, SYBR Green; 3D7; 72 h): 230 nM

CC(CCCCCC(F)(F)F)CC1=C(O)C(=O)c2ccccc2C1=O (stereo not drawn)
IC50 (parasite growth, [3H]hypoxanthine incorporation; TM91C235 multidrug-resistant, human erythrocytes): 84 nM

COc1ccc(C[C@H](N)C(=O)N[C@H]2[C@@H](O)[C@H](n3cnc4c(N(C)C)ncnc43)O[C@@H]2CO)cc1
IC50 (parasite proliferation, SYBR Green; 3D7; 72 h): 88 nM

Nc1cccc2c(=O)[nH]c(=O)oc12
antiplasmodial activity (K1, multidrug-resistant; up to 10 µg/mL): inactive

O[Si](CCCN1CCCCC1)(c1ccccc1)C1CCCCC1 (stereo not drawn)
IC50 (parasite proliferation, SYBR Green; 3D7; 72 h): 76 nM

COc1cccc(C(N)=O)c1O
antiplasmodial activity (K1, multidrug-resistant; up to 10 µg/mL): inactive

COc1ccc(C[C@H]2NC[C@H](O)[C@H]2OC(C)=O)cc1
IC50 (parasite growth, SYBR Green): 19.4 nM

COc1ccc(-c2c(C)nn3c(N)c(C#N)cnc23)cc1OC
fold resistance (parasite growth; Dd2-Polδ resistant lines, PI4KIIIβ E1316D; 72 h; relative to: EC50 resistant over parental): ~16 fold

Repeated from above:
CC(C)c1ccc2c(c1)CC[C@H]1[C@](C)(CN)CCC[C@]21C
parasites at trophozoite or schizont stage (Giemsa microscopy; 3D7; 10 µM, 48 h): 2.4%
